Published values from different studies.
A part holds a random share of what one study measured. Positions count from the first letter of the parent shown.

Sample 1
Target: Ras GTPase-activating protein-binding protein 1, RRM domain (G3BP1, Homo sapiens, UniProt Q13283)
UniProt Q13283, sequence (whole entry, looked up): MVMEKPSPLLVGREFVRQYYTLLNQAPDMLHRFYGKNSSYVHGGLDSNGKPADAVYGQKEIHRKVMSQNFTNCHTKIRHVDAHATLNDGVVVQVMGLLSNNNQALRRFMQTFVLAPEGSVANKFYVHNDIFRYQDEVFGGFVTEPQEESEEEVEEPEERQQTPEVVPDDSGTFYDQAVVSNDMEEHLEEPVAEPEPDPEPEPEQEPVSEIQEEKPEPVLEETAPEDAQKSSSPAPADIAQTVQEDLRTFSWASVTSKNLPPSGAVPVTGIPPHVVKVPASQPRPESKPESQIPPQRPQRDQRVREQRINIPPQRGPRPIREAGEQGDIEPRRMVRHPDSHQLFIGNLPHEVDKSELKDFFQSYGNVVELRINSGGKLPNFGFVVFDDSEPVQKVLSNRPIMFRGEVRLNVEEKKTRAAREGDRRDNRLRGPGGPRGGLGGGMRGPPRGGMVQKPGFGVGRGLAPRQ
Technique: RNA Bind-n-Seq
Molecule type: RNA
Matrix: in vitro
Tested at: 1 µM
Notes: whole 134-nt RNA, ends assumed
Added: 150 mM KCl
Reference: input library
Direction: higher = stronger binding
Shared flanks, not repeated: GGGAGUUCUACAGUCCGACGAUC … UGGAAUUCUCGGGUGUCAAGG
Sequence | log2 enrichment
UCCCUGAGACGGCGGGCAACAGCAUCGGCAGGAACGCCAUGGCCGUCCCCUCCCAGCUCUUACCUUACCAUCGACCUCACAGACGACACA | -0.329
UGUGCUACACAUCGUAUGUACCGAAUCGGGGAAAAAAAGGGGAAAAAGGGGAAAAAAAGGGGAAAGUAUUAUGUUACGCCGUUCGGAUCU | 1.08
CACAGACAACACGCACCCACUCAGACACAGAGGGAAGGGGUUGGGAUGGGGACAGGGUGCACAGCAGGGCGGGGUAGGACCCCAGCCCCU | 0.0561
UAACUUUAGAGGAGGAUCUGAUGGAUAUGGCAGUGGACGUGGAUUUGGAGAUGGCUAUAAUGGGUAUGGAGGAGGACCUGGAGGUGGCAA | -0.685
CAAGUCCUGUGCUACACAUCGUAUGUACCGAAUCGGGCCCGGGGCCCGGGCCCGGGAAAGUAUUAUGUUACGCCGUUCGGAUCUGCACUU | -0.775
CCUGUGCUACACAUCGUAUGUACCGAAUCAAACCCCCCCAAAUUUUUUUAAAUUUUUAAAAAAGUAUUAUGUUACGCCGUUCGGAUCUGC | -0.705
AGUCCUGUGCUACACAUCGUAUGUACCGAAUCGGGGCCCCGGCCCCGGGCCCCGGGGAAAGUAUUAUGUUACGCCGUUCGGAUCUGCACU | -0.763
UUCCUCAAGUCCUGUGCUACACAUCGUAUGUACCGAAUCGGGCGGCGGCGGAAAGUAUUAUGUUACGCCGUUCGGAUCUGCACUUCCAGC | -0.136
UAACUUUAGAGGAGGAUCUGAUGGAUAUGGCAGUGGACGUGGAUUUGGGGAUGGCUAAAAUGGGUAUGGAGGAGGACCUGGAGGUGGCAA | -0.248
GUCCUGUGCUACACAUCGUAUGUACCGAAUCGGGAAAAAAAGGGAAAGGGUUUUUGGGAAAGUAUUAUGUUACGCCGUUCGGAUCUGCAC | 0.235
AGUCCUGUGCUACACAUCGUAUGUACCGAAUCGGGGUUUUUGGGGUUUGGGGAGGGGAAAGUAUUAUGUUACGCCGUUCGGAUCUGCACU | 1.3
UCCUCAAGUCCUGUGCUACACAUCGUAUGUACCGAAUCGGGUGGUGGUGGGAAAGUAUUAUGUUACGCCGUUCGGAUCUGCACUUCCAGC | -0.102
UCUGUUUCCUCUGCCAGUGGCAAUGCAACACCUAACACUCCUGGGGAUGAGUCUCCCUGUGGUAUUAUUAUUCCUCAUGAAAACUCACCA | 0.0618
UGGCCCUGGUGGCAUGCGGGGAGGAAGAGGUGGCCUCAUGGAUCGUGGUGGUCCCGGUGGAAUGUUCAGAGGUCGCCGUGGUGGAGACAG | 1.58

Sample 2
Target: DBP, bZIP domain (human)
Technique: DHFR protein complementation
Matrix: yeast
Notes: single substitutions, most at no-binding floor
Reference: wild-type JUN-FOS pair
Direction: higher = stronger binding
Starting sequence: JUN, bZIP domain (human); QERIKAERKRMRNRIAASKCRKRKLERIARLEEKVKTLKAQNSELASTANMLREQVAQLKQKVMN; partner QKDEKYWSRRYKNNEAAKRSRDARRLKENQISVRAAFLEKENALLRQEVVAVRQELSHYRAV
Variant | binding fitness [natural log]
R30F | -1.43
K39M | -1.47
Q55Y | -1.57
V35S | -1.56
E44Q | -1.44
A57H | -1.52
S43C | -1.43
I28L | -1.54
L38T | -1.58
E33A | -1.37
A29R | -1.47
L31D | -1.54
R30G | -1.45
K34P | -1.46
T37W | -1.25
S43I | -1.5
L31K | -1.49
I28D | -1.1
R53Q | -1.48
A46T | -1.58
L31P | -1.49

Sample 3
Target: Histone acetyltransferase KAT6A, winged helix 2, GST fusion (KAT6A, Homo sapiens, UniProt Q92794, residues 85-181)
Technique: protein binding microarray
Molecule type: double-stranded DNA, one strand shown
Matrix: in vitro
Tested at: not given
Notes: 8-mer, flanks averaged, mean of 2 arrays, mostly near background
Reference: not given
Direction: higher = stronger binding
Construct (chain): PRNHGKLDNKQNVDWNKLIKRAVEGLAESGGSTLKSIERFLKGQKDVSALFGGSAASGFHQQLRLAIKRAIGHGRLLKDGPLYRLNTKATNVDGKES
Sequence | E-score
GGTGCAGA | -0.0696
AACCTATT | -0.116
CCGTCGCG | 0.12
AGATGTGG | -0.138
GCAGAAAA | 0.133
CTGGTGAA | -0.0383
AATCGCTA | -0.108
CTGAGCGA | 0.196
CAGTTGAC | -0.00469
CCGAATTA | 0.0119
CTCACTAC | 0.0287
GACGCGAC | 0.0508
CGTTTGAG | 0.126
GAAACTAA | -0.0605
TAGCTGAA | -0.0155
GGCAAAAC | 0.0575
ACAAGTCC | -0.1
AACAACGT | -0.219
ACGCATGC | 0.153
GTACAACA | 0.0295
CGAGTAGC | 0.0732
AATGATAG | -0.0175
AACCTTCA | -0.0303

Sample 4
Target: ABI1, truncated, D143A, DHFR fusion (Arabidopsis thaliana)
Technique: DHFR PCA, deep sequencing
Matrix: yeast
Notes: methotrexate growth selection, single substitutions
Added: (+)-ABA 200 µM
Reference: wild-type fitted maximum
Direction: higher = stronger binding
Starting sequence: PYL1, truncated, DHFR fusion (Arabidopsis thaliana); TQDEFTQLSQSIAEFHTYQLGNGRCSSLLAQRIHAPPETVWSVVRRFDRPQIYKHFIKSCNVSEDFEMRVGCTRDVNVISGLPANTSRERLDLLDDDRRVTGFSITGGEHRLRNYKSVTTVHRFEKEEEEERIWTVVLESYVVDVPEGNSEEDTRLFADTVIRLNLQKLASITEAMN; partner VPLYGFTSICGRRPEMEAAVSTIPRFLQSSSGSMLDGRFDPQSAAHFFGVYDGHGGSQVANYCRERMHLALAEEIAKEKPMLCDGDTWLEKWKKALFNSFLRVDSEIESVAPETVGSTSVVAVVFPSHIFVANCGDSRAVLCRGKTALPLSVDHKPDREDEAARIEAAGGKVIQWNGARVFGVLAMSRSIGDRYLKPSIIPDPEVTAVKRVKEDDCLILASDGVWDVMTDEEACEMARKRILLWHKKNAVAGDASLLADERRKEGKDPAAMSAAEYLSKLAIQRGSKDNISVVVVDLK
Variant | relative binding score [%]
V136P | -15.7
H122M | 37.6
Y115V | -5.02
R155Q | 90.9
S27C | 74.2
R24Y | 86.8
K168I | 77.7
A170K | 104
L8A | 80
E127K | 104
Y53W | 98.6
R24P | 41.9
Q2Y | 89.8
K116I | 40.3
T106C | 103
T73F | 107

Sample 5
Target: CCNF, cyclin fold, Cln2 fusion (human)
Technique: yeast growth competition, sequencing
Matrix: yeast
Notes: strong parent motif
Reference: not given
Direction: higher = stronger binding
Starting sequence: PKN2 docking peptide (human); VSAVRKLDFSDTM
Variant | normalised enrichment score
VSAVRKGDFSDTM [L7G] | -0.148
VSAVGKLDFSDTM [R5G] | -0.345
VSAVRKLDFSNTM [D11N] | 7.2
VSAVLKLDFSDTM [R5L] | 0.88
VSAIRKLDFSDTM [V4I] | 6.92
VSAVTKLDFSDTM [R5T] | 0.789
VSAVRKLDFSRTM [D11R] | 7.6
VSAHRKLDFSDTM [V4H] | 6.35
VSAVRKLDFSDAM [T12A] | 7.14
VSAVRKLDFKDTM [S10K] | 6.66
VCAVRKLDFSDTM [S2C] | 7.25
VSAVRKVDFSDTM [L7V] | 1.23
VSAVSKLDFSDTM [R5S] | -0.125
VSAVRKLDFSDPM [T12P] | 6.99
VSAVRKLDFLDTM [S10L] | 7.4
VSAVRKLDFSPTM [D11P] | 7.46
VSAVRKLDFSDHM [T12H] | 7.01
VSAVRKLDTSDTM [F9T] | 0.377
VSAVRLLDFSDTM [K6L] | 4.97
VSAVRKLDFWDTM [S10W] | 7.61

Sample 6
Target: RING finger protein unkempt homolog, zinc fingers 1-6, GST-SBP tag (UNK, Homo sapiens, UniProt Q9C0B0, residues 30-357)
UniProt Q9C0B0, sequence (30-357, looked up): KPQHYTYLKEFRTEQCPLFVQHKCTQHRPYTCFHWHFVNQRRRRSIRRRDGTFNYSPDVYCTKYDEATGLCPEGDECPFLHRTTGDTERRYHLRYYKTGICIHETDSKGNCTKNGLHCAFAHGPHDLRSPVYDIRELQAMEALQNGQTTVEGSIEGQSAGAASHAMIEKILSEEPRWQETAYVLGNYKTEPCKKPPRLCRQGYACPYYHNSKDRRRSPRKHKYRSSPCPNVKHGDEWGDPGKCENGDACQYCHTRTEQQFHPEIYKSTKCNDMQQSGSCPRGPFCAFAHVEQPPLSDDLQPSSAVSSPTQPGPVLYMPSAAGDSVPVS
Technique: RNA Bind-n-Seq
Molecule type: RNA
Matrix: in vitro
Tested at: not given
Notes: RNA with constant flanks, human and mouse sites, ends assumed
Reference: input RNA pool
Direction: higher = stronger binding
Shared flanks, not repeated: GGGAGUUCUACAGUCCGACGAUC … CAACAGAGGAUUGAGCAUCA
Sequence | bound/input enrichment [ratio]
GUGCUAGAAAAUAAGGUCGUCUGGGAAAAGGACUGGAGACACAAGCGCAUCCAACCCCGGUAGCAAACUGAUGACUUUUCCGUGCUGAUUUCUUUCAACCUCGGUAUUUUCCCUUGGAUA | 0.321
UGGGUGUACACGUUCUCCCGAGCUGCCGUCCUCCUCAGCAUCGUAUACUUCUAUUCUUCUUUCAGUCGGUUUAUCAUGGUAAUGGGAGCCAUGCUGCUGGUUUAUUUACACCAAGCUGGA | 0.285
UCCAGCCAGCACAUCUCCAUUGAGGGCCAGAAGGAAGAGGAAAGGUAUGAGAGAAUCGAAAUCCCAAUCCAUAUUGUACCUCAUGUCACUAUCGGGAAAGUGUGCCUUGAAUCAGCAGUA | 0.217
GAUGAUGGCAUUUCAGAUGAUGAAAUUGAAGGGAAAAGAACUUUUGACUUGGAAGAGAAGCUCCAAACCAACAAAUAUAAUGCCAAUUUUGUUACUUUUAUGGAGGGAAAAGAUUUUAAU | 0.248
GAGUCGAGCAAACUUGAAACAAUUCGUUAUCUUGCAGCCUCAGUGUUCACUUGCUUGGCGAUAGCAUUGGGGUUUUAUAGGUUCUGGAAGGAGAACUGACGAUGAUGCUGCCGCUGCUGC | 0.15
GUGGUGGCCAUAGGAACGCACUCAGGCAGGUGGUUUGUUCUGGAUGCAGAAACCAGAGAUCUAGUUUCUAUCCACACAGACGGGAAUGAACAGCUCUCUGUGAUGCGCUACUCAAUAGAU | 0.219
CAUCGACAUUGGUAAUGUGGCCAGCUCUCCUUGGUCCUGUCCUCAGCCGAUGCUUUUUCAAUAGGAUUUUUAUGCUUUGUGUACCUCAACCAAGUAUGAAGAGCUGUACUGGUUUUAUAG | 0.955
UUGGAUGUGACAGUGCAGUCCUUUGGAUGGUCCGAUAGAGCAAAGGCAAAAACAGAUAACAUAGCAAGAAUUUACCAGCCCAAGCGUUAUGCUCUGUCGCCCAAGACAACAGUCACAUUG | 0.125
UGAGUACACAUGGGUGCUGGUGUGGGACAGGAGCAGAUCUUGGUGGAGUGGGUCUACACUUGAGAUUUGUACUCGUUUGAGAGGCUGGGCAAUACUCAAUGCACUUUGGCAUUUGCAUGG | 0.312
CAGAAAAACCUUUGUUUUGGUGUGCACAUCCAUUUUGUUUUUGCUUUAAUUUGUGUUCUGAGUAUUUGGUGCACAAUGGAAAUUAUAUUUUCUACUUUACUGUCUUCAAUUUGGUUAUAG | 0.264
GCGGAUCCGGGCCUUUCCGAUGACCAUGGAUGAAAAAUAUGUAAACAGCAUUUGGGACCUUCUGAAAAAUGCAAUUCAAGAAAUCCAGCGUAAGAAUAACAGUGGUCUUAGUUUUGAGGA | 0.731
